Assay results pooled from the literature.
Every numbered part comes from another study and shows a few of its results, in no order. Positions count from the first letter of the parent shown.

Block 1
Target: Histone acetyltransferase KAT6A, both winged helices, GST fusion (KAT6A, Homo sapiens, UniProt Q92794, residues 1-181)
Technique: protein binding microarray
Form: double-stranded DNA, one strand shown
Matrix: in vitro
Tested at: not given
Setting: 8-mer, flanks averaged, mean of 2 arrays, mostly near background
Reference: not given
Direction: higher = stronger binding
Residues (chain): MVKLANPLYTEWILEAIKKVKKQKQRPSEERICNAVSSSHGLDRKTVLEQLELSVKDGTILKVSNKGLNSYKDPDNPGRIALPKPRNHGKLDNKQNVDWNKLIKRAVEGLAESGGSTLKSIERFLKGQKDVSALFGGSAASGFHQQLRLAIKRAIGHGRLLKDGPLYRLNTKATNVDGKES
Oligonucleotide | E-score
ACCCAATA | -0.103
GAGGGCCA | -0.165
CGCGCGAC | 0.4
CAAAAAAC | -0.0696
ACAAGTGA | -0.011
AAACCCAC | -0.0134
AAGGAATA | -0.132
AGTTTCAC | -0.0575
CACACAGC | 0.0694
ACGTGCGG | 0.0916
AGATGTCC | 0.0537
TATGCAGA | -0.165
GAGCATTA | -0.0675
ACGACTGG | 0.00898
CGCGCTTC | 0.338
CAGCGTAC | 0.203
GACGGCCA | 0.176
AGTCTTAG | -0.0684
TCACAGGA | -0.169
AAAGGGTC | -0.0196
GACCCCGA | 0.0293
AGAGTGTA | -0.126
CATCTCGC | 0.0911
AAATAGGA | -0.146

Block 2
Target: RNA binding protein fox-1 homolog 2, RRM domain, GST-SBP tag (RBFOX2, Homo sapiens, UniProt O43251-10, residues 100-194)
Technique: RNA Bind-n-Seq
Form: RNA
Matrix: in vitro
Tested at: 365 nM
Setting: natural RNA segment, single round, ends assumed
Reference: no-protein control
Direction: higher = stronger binding
Residues (chain): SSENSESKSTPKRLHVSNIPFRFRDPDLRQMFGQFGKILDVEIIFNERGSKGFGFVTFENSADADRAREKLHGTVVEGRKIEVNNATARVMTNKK
Oligonucleotide | RBNS enrichment (R)
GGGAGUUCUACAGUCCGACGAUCAAUAAGAUGCUUGAACAAGUUAGAUGAAAUGGAUCUUUGAGAUAAGUCUGAGAGACAGAGUUACUUAGACAAAUGACACUGAAGCAGAUUAGAAGCUAGUAUCACCCAUUUGGAAUUCUCGGGUGCCAA | 0.462
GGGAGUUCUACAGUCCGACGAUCAGUGAGCCCUUGGCUCAGCCCUUGUCACCUGUUUGUAUGGGGACCAUGUUUCCCAAAGCUCAGGUUCAUCUCCACUAUUGACAGAGUCGGGUAGUGGGAGAGUAUAAGUGUGGAAUUCUCGGGUGCCAA | 0.254
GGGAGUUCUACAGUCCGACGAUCUCCUGGGUUACCCUGGAUACCCCGAUGAACAGGAAAUCAAUGCCUGAGGCUGACUUCAGCUCCUGGACACCCUUAGAAUUCCUAGUUGGAACUUUCCAUGACUGGAUCACUGGAAUUCUCGGGUGCCAA | 0.401
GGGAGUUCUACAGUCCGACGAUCAUGUUAUUUUCUAAAAUUGUCAUUCCUUUGCAACAUAUGAGCAUUAAUAUCUUUUCUCUUUUAACAUUGAAGAAAUGGGAAAUUUCAUUAAUGACAUUGUUGUUGAUAAAUGGAAUUCUCGGGUGCCAA | 0.449
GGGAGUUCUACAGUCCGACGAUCCCCCUGAAAAUAUUUGCUUGUAAAUGAAAACUUAGCUAGGGCUUAAAUAAACAUGUUGCUAUGAAAUAUUUUUACUGUAUUGUUCUUUUUCCAAAUUGCAAGAGAAUGGCUGGAAUUCUCGGGUGCCAA | 0.963
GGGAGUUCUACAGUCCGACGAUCUCUGCACUGUGUUUGCCAGCCCUGCCCCCAUCUGAUGGACCAGGCAGUCCUUUAUCUGGAGGGAAAAGUCUGAUGCCAGCAGAGGUCCUGGGGCGCUGCUCUCCCAGGUCUGGAAUUCUCGGGUGCCAA | 0.25
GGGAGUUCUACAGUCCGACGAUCAGGGAUCUCUGGUCCCCAGGAGACCUUGGGGGCCAGGCAGGUAAGGAUCAGGGGUGAUAGGGGAGAGCAAUUACUUUGUUCACUGUAUGCACCCGCGGGGGCCUGGGAGUUGGAAUUCUCGGGUGCCAA | 0.362
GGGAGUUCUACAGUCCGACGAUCCCCUUAGUACAAUUCUUAGUGUCAAUAGCACAGCACCCCAGCUUGUACAAGUCAUUCUCUGUUAGGAUUCCUUUCAAUUCUCACUGUCUACAAUGCUCUUCAUGGUCUCAUGGAAUUCUCGGGUGCCAA | 0.739
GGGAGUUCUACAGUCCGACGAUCUGUUUGGUGUUGAAAUGGGGUCAUUUCAUUCCAUGUUAUGAAUGCAACCAGAAAGGGUGUCUGGGAUAUGAGCAGAUGUGGCAUCUUCCAGAAAUGAUCAUCUGGUUAUGUGGAAUUCUCGGGUGCCAA | 1.28
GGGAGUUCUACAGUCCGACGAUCGGACACUGGCCUCUUAGUGCCCGGCUGCCGAGCUCUUGGCCUUGUCCCCUGGGGCAUCUCUGUCCCCUCCACCUGCCCAAGACCCAACUCUAGGAUGAAGGCCUUGAAUAUGGAAUUCUCGGGUGCCAA | 0.279
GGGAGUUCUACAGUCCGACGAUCUGGCUAUCUUUAAGAAAGAUGAUAUAUCCUAGUUUUGAAAGUAAUUUUCUUUUUUCUUUCUAGCAUUUGAUGUCUAAAUAAUUUUGGACAUCUUUUUCCUAGACCAUGUUUGGAAUUCUCGGGUGCCAA | 0.482
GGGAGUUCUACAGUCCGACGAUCUUUGUUUUCUUUUUUGUCUUGAAUGAAUUUUAAAAGGAAAUAUAUAAUAAAAAUGUUAACCAGAAGGUAAACUUGAGUGUAAUUGUCAGACAGACACACUUUUCCACCAGUGGAAUUCUCGGGUGCCAA | 0.542

Block 3
Substance: PhoQ, residues 284 288 289 292 302 303 QWQEDG
Technique: Sort-seq
Refers to: YFP reporter
Matrix: E. coli
Setting: PhoQ-PhoP variant library
Added: 10 µM Mg2+
Reference: high Mg2+ state
Direction: higher = stronger signaling
target | fold induction
PhoP, residues 12 14 15 18 19 ICWRQ (Escherichia coli, UniProt P23836) | 2.87
PhoP, residues 12 14 15 18 19 VHTVL (Escherichia coli, UniProt P23836) | 13
PhoP, residues 12 14 15 18 19 TQCLL (Escherichia coli, UniProt P23836) | 3.92

Block 4
Target: CCNB2, cyclin fold, Cln2 fusion (human)
Technique: yeast growth competition, sequencing
Matrix: yeast
Setting: strong parent motif
Reference: not given
Direction: higher = stronger binding
Starting sequence: BRCA2 docking peptide (human); PSIKRNLLNEFDR
Variant | normalised enrichment score
K4G | 0.476
P1Y | 4.09
R5C | 2.18
E10A | 0.7
I3N | -0.121
K4R | 3.89
K4F | 1.33
L8G | 0.901
L8D | 0.73
D12Q | 3.82
L7G | -0.0623
R13S | 4
D12L | 1.94
I3A | 1.54
N9F | 3.12
S2G | 2.71
L7N | -0.949
F11I | 1.51
P1A | 3.64
N6D | 1.74
E10D | 3.91
S2N | 3.13
R13G | 3.81
S2I | 2.71
S2C | 3.28

Block 5
Target: Interferon regulatory factor 3, full length, phosphomimetic (IRF3, Homo sapiens, UniProt Q14653, residues 1-427, S386D/S396D/S398D/S402D/T404D/S405D)
Chain of UniProt Q14653 (whole entry, unmodified, looked up): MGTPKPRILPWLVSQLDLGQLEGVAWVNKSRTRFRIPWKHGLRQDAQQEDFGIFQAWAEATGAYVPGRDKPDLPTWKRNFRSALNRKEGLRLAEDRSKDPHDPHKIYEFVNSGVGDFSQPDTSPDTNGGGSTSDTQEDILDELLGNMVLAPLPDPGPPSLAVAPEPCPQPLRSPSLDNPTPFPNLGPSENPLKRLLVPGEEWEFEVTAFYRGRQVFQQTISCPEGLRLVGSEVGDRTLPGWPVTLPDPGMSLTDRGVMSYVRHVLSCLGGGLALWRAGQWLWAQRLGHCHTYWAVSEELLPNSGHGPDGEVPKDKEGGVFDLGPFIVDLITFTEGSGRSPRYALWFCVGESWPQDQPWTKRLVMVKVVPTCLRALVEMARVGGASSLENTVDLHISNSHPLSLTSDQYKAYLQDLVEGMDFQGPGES
Technique: protein-binding microarray
Form: double-stranded DNA, one strand shown
Matrix: in vitro
Tested at: 2540 nM top
Setting: 60-bp whole probe
Added: salmon DNA 0.4 mg/ml
Reference: random background probes
Direction: higher = stronger binding
All sequences stand within: GCCTAGCAC … GTCTTGATTCGCTTGACGCTGCTG
Oligonucleotide | fitted relative affinity
GACGGTTTCGGACTGCGGACGTGCTAG | 4.6 z-score
GACGGTCCCCTTCTCCTGACGTGCTAG | 2.98 z-score
TCAATTGTCTCTGTCCCACTGTGCTAG | 0.169 z-score
GGCATTTTTTTTATCAATCAGTGCTAG | 0.282 z-score
GACGGACAGCTACTGCTGACGTGCTAG | -0.815 z-score
TTAGCTATCGGGTATCGGTTAGTGCTA | 0.614 z-score
GACGGTTTCGGTATCGGGATGTGCTAG | 7.78 z-score
TCAAATTTTGTCATCTAACTGTGCTAG | 0.235 z-score
GACGGTTTCCTAATCCTGACGTGCTAG | 6.95 z-score
GACGGTATCGACACCGGGGACGTGCTA | 0.525 z-score
GACGATATCAGTCTAGAGACGTGCTAG | 0.611 z-score
TTAGGCTTCGACTATCGGTTAGTGCTA | -0.59 z-score
TTAGATCTCAGACTGGATTGGTGCTAG | -0.137 z-score
ATAGGTTCCCTTTTCCTTTAGTGCTAG | 7.38 z-score
TTAGGTCTCCTTCTCCATTAGTGCTAG | 4.39 z-score
TTAGGTTTCGGTTTCGCTTAGTGCTAG | 10.8 z-score
TCACCATTGGTCTTCACACTGTGCTAG | -0.0343 z-score
GACGGACTGGACACTTGGGACGTGCTA | -0.643 z-score
GCGCCTGTAGCCCCTCCAGGGTGCTAG | -0.528 z-score
TTCATTATTGCTTCCTCTTTGTGCTAG | 0.698 z-score
TCGTTATCCTATATCTGAACGTGCTAG | 2.35 z-score
GACGGACTGCTTTTCCTGGCGTGCTAG | -0.186 z-score
GACGATTTCGGTTTCGAGACGTGCTAG | 7.12 z-score
TTAGGTATCCTTCTCCATTAGTGCTAG | 7.16 z-score
TTAGATCTCAATTTCGATTAGTGCTAG | 1.47 z-score

Excerpt of the above (block 5):
Oligonucleotide | fitted relative affinity
GACGGACTGCTTTTCCTGGCGTGCTAG | -0.186 z-score
GACGGTTTCGGACTGCGGACGTGCTAG | 4.6 z-score
GACGATTTCGGTTTCGAGACGTGCTAG | 7.12 z-score
GACGGTATCGACACCGGGGACGTGCTA | 0.525 z-score
TTAGGCTTCGACTATCGGTTAGTGCTA | -0.59 z-score
GACGGACAGCTACTGCTGACGTGCTAG | -0.815 z-score
TTAGCTATCGGGTATCGGTTAGTGCTA | 0.614 z-score
GACGGTTTCGGTATCGGGATGTGCTAG | 7.78 z-score
TTCATTATTGCTTCCTCTTTGTGCTAG | 0.698 z-score
TTAGATCTCAATTTCGATTAGTGCTAG | 1.47 z-score
TCAATTGTCTCTGTCCCACTGTGCTAG | 0.169 z-score
TTAGATCTCAGACTGGATTGGTGCTAG | -0.137 z-score
GGCATTTTTTTTATCAATCAGTGCTAG | 0.282 z-score
